Results from different studies.
Protocols differ between the studies behind these lines. ± gives the spread as reported.

SMILES	test	test system	setting	how to read	quantity	result
CN(C)c1cccc(-c2ccc(C3CCCCC3)cc2)c1	liver microsome stability	human liver microsomes	1 µM, without NADPH		hepatic clearance	4.2 mL/min/kg
CCc1cnc(NC(=O)c2cc(S(=O)(=O)N3CCOCC3)ccc2N(C)C2CCCC2)s1		mouse, blood	10 mg/kg, 3 doses		Monocytes absolute count	886 µL⁻¹
Nc1ncc(-c2ccc(C3CCCCC3)cc2)cn1	hepatocyte stability	cryopreserved human hepatocytes	1 µM		hepatic clearance	19 mL/min/kg
N=C(N)NCCC[C@@H]1NC(=O)[C@H](CCCNC(=N)N)NC(=O)[C@H](CCCNC(=N)N)NC(=O)[C@H](CCCNC(=N)N)NC(=O)[C@H](Cc2ccc3ccccc3c2)NC(=O)[C@H](Cc2ccccc2)NC(=O)CCSSC[C@@H](C(=O)N[C@@H](CCCCNC(=S)Nc2ccc3c(c2)C(=O)OC32c3ccc(O)cc3Oc3cc(O)ccc32)C(N)=O)NC1=O	chemical stability	human, serum			half-life	~6 h
CCCCCCCOc1ccc(CC[C@](N)(CO)COP(=O)(O)O)cc1C(F)(F)F		healthy male humans, plasma	0.75 mg amiselimod, day 1, mean		AUCtau	25.6 ng·h/mL
C=CC(=O)Nc1cc(Nc2nccc(-c3c[nH]c4ccccc34)n2)c(OC)cc1N(C)CCN(C)C	storage stability	human dried blood spots	24 h, -80 °C, medium QC level		recovery	88.7%
O=C(N1CCCCC1)C12CC(c3ccccc3)(C1)C2(Br)Br	metabolic stability	human, liver microsomes	2 µM, 7 min, pH 7.4		compound remaining	88%
C=C(NC(=O)c1csc(-c2nc3c(cc2O)-c2nc(cs2)C(=O)NC(C(C)O)C(=O)NC(=C(C)OC)c2nc(cs2)C(=O)NC2c4nc(cs4)C(=O)NC(COC(=O)c4c5c6c(cccc6n4O)COC(=O)C(OC4CC(C)(O)C(N(C)C)C(C)O4)C2OC5)c2nc-3cs2)n1)C(N)=O (stereo not shown)		ICR mice, Streptococcus pneumoniae ATCC 49169 infected, immunocompromised, blood	intravenous, 16 mg/kg/day three times daily		MRT(0-t)	8.32 h
C=C1C[C@]2(C(=O)OC)C=C(C(=O)Nc3cccc(C(=O)Nc4ccc(Nc5nccc(-c6cccnc6)n5)c(C)c4)c3)C(=O)[C@H]1C2		Wistar rat, male, plasma	10 µM, 30 min		compound remaining	0.89%
CCCC[C@H](NC(=O)CNC(=O)CNC(=O)[C@H](CCCCNC(=O)[C@H](CC(=O)O)NC(=O)C(C)c1ccc(CC(C)C)cc1)NC(=O)CN1CCN(CC(=O)O)CCN(CC(=O)O)CCN(CC(=O)O)CC1)C(=O)N[C@H]1CC(=O)NCCCC[C@@H](C(N)=O)NC(=O)[C@H](Cc2c[nH]c3ccccc23)NC(=O)[C@H](CCCNC(=N)N)NC(=O)[C@@H](Cc2ccccc2)NC(=O)[C@H](Cc2c[nH]cn2)NC1=O (stereo partly shown) [lutetium-177 labelled]		C57 mouse, urine	2 h		urinary excretion	75.4 ± 4.23%
CC[C@H](C)[C@@H]1NC(=O)[C@H](Cc2ccc(O)cc2)NC(=O)CCCSC[C@@H](C(=O)N(CC(=O)N[C@@H](CC(C)C)C(=O)NCC(N)=O)Cc2ccc(F)cc2)NC(=O)[C@H](CC(N)=O)NC(=O)[C@H](CCC(N)=O)NC1=O		healthy human, plasma	intranasal, 200 µg every 3 h, after first dose		Cmax	0.127 ng/mL
c1cc(C2CCCCC2)ccc1-c1ccc(N2CCCC2)nc1	liver microsome stability	dog liver microsomes	1 µM		hepatic clearance	23 mL/min/kg
COc1cnc2cccc(N3CCc4c(cc(Cn5ccnc5)cc4-c4cn(C)nc4C(F)(F)F)C3=O)c2c1		CD-1 mouse, male, plasma	intraperitoneal, 100 mg/kg		AUC extrapolated fraction	0.3%
CS(=O)(=O)c1ccc(-c2ccc([C@H]3[C@@H](F)[C@@H](F)C[C@@H](F)[C@H]3F)cc2)cn1	liver microsome stability	cynomolgus liver microsomes	1 µM		hepatic clearance	5.7 mL/min/kg
OC1(C(F)(F)F)CCN(c2nc(Nc3ccnc(C(F)(F)F)c3)nc(-c3cccc(C(F)(F)F)n3)n2)C1 (stereo not shown)		Sprague-Dawley rat, both sexes, plasma	oral gavage, 10 mg/kg		AUC(0-24 h)	9710 ± 1020 ng·h/mL
O=C(Nc1cnccc1-c1ccc([18F])cc1)c1ccnc(NC(=O)C2CC2)c1		mice, transgenic, GSK-3β, early-stage, stomach	intravenous, dose not given, 120 min		SUV	0.31
O=C(NCCOc1ccc(F)cc1)c1ccc([C@H]2[C@@H](F)[C@@H](F)C[C@@H](F)[C@H]2F)cc1	liver microsome stability	human liver microsomes	1 µM, without NADPH		hepatic clearance	3.9 mL/min/kg
C/C(N)=N/C(=N\S(=O)(=O)c1ccc(C(F)(F)F)cc1)N1C[C@H](c2ccccc2)C(c2ccc(Cl)cc2)=N1		minipig liver cytosol			t1/2	0.753 h
F[C@@H]1[C@H](c2ccc(-c3ccc(N4CCCC4)nc3)cc2)[C@H](F)[C@H](F)C[C@@H]1F	liver microsome stability	human liver microsomes	1 µM, without NADPH		hepatic clearance	8.5 mL/min/kg
CCC1(CC)CC(=O)N(C2c3cc(C(=O)NC4c5ccccc5CC4O)ccc3OC2(C)COC)C(=N)N1 (stereo not shown)		rat plasma			unbound fraction	0.232
O=C(Nc1cnccc1-c1ccc([18F])nc1)c1ccnc(NC(=O)C2CC2)c1	ex vivo gamma counting	GSK-3β transgenic mice, early-stage, adipose tissue	intravenous, 120 min, added: tariquidar 15 mg/kg iv		mean SUV	0.117
Cc1nn(-c2nc3c(F)cc(F)cc3s2)c(O)c1C(c1ccc(C(F)(F)F)cc1)c1c(C)nn(-c2nc3c(F)cc(F)cc3s2)c1O		ICR mouse, plasma	oral, 50 mg/kg		Tlast	24 h
COc1ccc2c(c1)CN(C(=O)CCN1CCC(Cc3ccccc3)CC1)CCS2		paroxysmal atrial fibrillation patients, plasma	oral, 540 mg, 120 min		unbound plasma concentration	14 ± 4 nM
O=C(NCCO)c1ccc([C@H]2[C@@H](F)[C@@H](F)C[C@@H](F)[C@H]2F)cc1	hepatocyte stability	cryopreserved mouse hepatocytes	1 µM		hepatic clearance	21 mL/min/kg
COc1cccc(OC)c1-c1cc(C(=O)NC2(C(=O)O)C3CC4CC(C3)CC2C4)nn1-c1ccc(C(=O)NCCNC(=O)[C@H](CCCCNC(=O)[C@H](CC(C)C)NC(=O)C2OC2C(=O)O)NC(=O)CN2CCN(CC(=O)[O-])CCN(CC(=O)[O-])CCN(CC(=O)[O-])CC2)cc1C(C)C.[177Lu+3] (mixture of isomers)		mouse, HT-29 xenograft	72 h post injection, biodistribution	baseline: tumour over bone uptake	tumour-to-bone ratio	76.8
O=C(Nc1ccc(C2CCCCC2)cc1)C1(N2CCOCC2)CC1	liver microsome stability	cynomolgus liver microsomes	1 µM		hepatic clearance	36 mL/min/kg
COC1C=COC2(C)Oc3c(C)c(O)c4c(c3C2=O)C2=NC3(CCN(CC(C)C)CC3)NC2=C(NC(=O)C(C)=CC=CC(C)C(O)C(C)C(O)C(C)C(OC(=O)c2cccnc2)C1C)C4=O (stereo not shown)		CD-1 mouse female, plasma	oral, 10 mg/kg		fAUC/MIC ratio	49.9
[123I]c1ccc2nc(-c3ccc(-n4ccnn4)nc3)cn2c1		male Wistar rat, heart	intravenous, 4 MBq, 3 h		tracer uptake	0.035 %ID/g

Some of these lines once more:
SMILES	test	test system	setting	how to read	quantity	result
CS(=O)(=O)c1ccc(-c2ccc([C@H]3[C@@H](F)[C@@H](F)C[C@@H](F)[C@H]3F)cc2)cn1	liver microsome stability	cynomolgus liver microsomes	1 µM		hepatic clearance	5.7 mL/min/kg
OC1(C(F)(F)F)CCN(c2nc(Nc3ccnc(C(F)(F)F)c3)nc(-c3cccc(C(F)(F)F)n3)n2)C1 (stereo not shown)		Sprague-Dawley rat, both sexes, plasma	oral gavage, 10 mg/kg		AUC(0-24 h)	9710 ± 1020 ng·h/mL
O=C(Nc1cnccc1-c1ccc([18F])cc1)c1ccnc(NC(=O)C2CC2)c1		mice, transgenic, GSK-3β, early-stage, stomach	intravenous, dose not given, 120 min		SUV	0.31
